Measurements from different studies.
Protocols differ between the studies behind these lines. Several values in a cell are separate wells, animals, samples, runs or records. ± gives the spread as reported.
MAPK8: Mitogen-activated protein kinase 8 (MAPK8, Homo sapiens, UniProt P45983)
CASP7: Caspase-7 (CASP7, Homo sapiens, UniProt P55210)
T1: G-quadruplex DNA (Homo sapiens); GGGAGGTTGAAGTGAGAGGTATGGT

CCCCCC=CC=C1C(=O)C=CC1CC=CCCCC(=O)O (centres unmarked)  isoTOP-ABPP competition ratio (CCT8 (Homo sapiens, UniProt P50990); competitive isoTOP-ABPP; proteome, soluble, MDA-MB-231; 100 µM, 60 min, together with: iodoacetamide probe; reference: DMSO over compound-treated, higher = stronger cysteine blockade): 7.6
COC(=O)[C@@]1(C)C=C(C(=O)Nc2cccc(C(=O)Nc3ccc(Nc4nccc(-c5cccnc5)n4)c(C)c3)c2)C(=O)CC1  remaining activity (MAPK8; enzyme activity, inhibitor; 4.938 µM, 0 h, unit not given, together with: GSH 10 mM pre-incubation; reference: vehicle): 0.0507
CNc1ccc(-c2n[nH]c3c2CCN(C(=O)c2ccccc2)C3)cc1  number of kinases hit (human kinase panel; binding, KINOMEscan; 10000 nM, %Ctrl below 35): 4
CC(=O)N[C@H](C(=O)N[C@@H](CCCNC(N)=O)C(=O)N[C@@H](CCO)C(=O)N[C@@H](CC(=O)O)C(=O)COC(=O)c1c(C)cccc1C)C1CCCCC1  kinact/KI (CASP7; enzyme activity, inhibitor): 900 M⁻¹ s⁻¹
O=C(O)Cc1cc2c(cc1C(=O)c1ccccc1Cl)OCO2  desensitization time constant (Gria2 (Rattus norvegicus, UniProt P19491); glutamate-evoked current, whole-cell patch clamp; HEK-293T; concentration not given, weighted tau, 500 ms pulse, together with: glutamate): 0.9 ± 0.07 ms
C[N+]1(C)CCCC1  koff (Chrnd/Chrna1/Chrne (Mus musculus, UniProt P02716+P04756+P20782, G173S/S470W); binding, agonist, single-channel recording; binding site chain S side): 2910 s⁻¹
NS(=O)(=O)c1ccc(N2C(=O)c3ccc(N4CCOCC4)cc3C2=O)cc1  emission maximum (CA2 (Bos taurus, UniProt P00921); binding): 533 nm
CN(C)c1ccc(C2=C/C(=C/C=C/c3sc4ccccc4[n+]3C)c3ccccc3O2)cc1  binding (T1, G-quadruplex DNA (Homo sapiens); fluorescence turn-on): binds
CC(=O)N1C[C@H](O)C[C@H]1C(=O)N[C@@H](CC(C)C)C(=O)N[C@@H](C)C(=O)N[C@@H](CC(=O)O)C(=O)COC(=O)c1c(C)cccc1C  kinact/KI (CASP7; enzyme activity, inhibitor): 7000 M⁻¹ s⁻¹
CC[C@H](C)[C@H](NC(=O)[C@@H]1CCCN1C(=O)[C@@H](NC(=O)[C@@H](N)Cc1ccccc1)C(C)C)C(=O)N[C@@H](Cc1ccccc1)C(=O)N[C@H](C(=O)N[C@@H](Cc1ccc(O)cc1)C(=O)NCC(=O)N[C@@H](CCC(=O)O)C(=O)N[C@@H](CC(C)C)C(=O)N[C@@H](CCC(N)=O)C(=O)N[C@@H](CCCNC(=N)N)C(=O)N[C@@H](CCSC)C(=O)N[C@@H](CCC(N)=O)C(=O)N[C@@H](CCC(=O)O)C(=O)N[C@@H](CCCCN)C(=O)N[C@@H](CCC(=O)O)C(=O)N[C@@H](CCCNC(=N)N)C(=O)N[C@@H](CC(N)=O)C(=O)N[C@@H](CCCCN)C(=O)NCC(=O)N[C@@H](CCC(N)=O)C(=O)O)[C@@H](C)O  Emax (Motilin receptor (MLNR, Homo sapiens, UniProt O43193, F33A); IP1 accumulation, agonist, IP-One HTRF; AD293 cells; 1 h, 37 °C): 55 ± 7.7%
CC1(C)C[C@@H](Nc2cccc(-c3sc(C(=O)O)c(OCC(=O)O)c3Cl)c2)CCN1S(=O)(=O)Cc1cccc(NC(=O)CN2CCC(c3ccc4c(c3)oc(=O)n4C3CCC(=O)NC3=O)CC2)c1 (some centres unmarked)  BLI binding response (PTPN2 (Homo sapiens, UniProt P17706, H30A/P33A/R35A); degrader, bio-layer interferometry; 62.5 nM; higher = more binding): 0.397 a.u.
N#CN1CC[C@H](C(=O)Nc2nc3c(s2)CN(C(=O)Cn2cc(CNC(=O)CCCC[C@@H]4SC[C@@H]5NC(=O)N[C@@H]54)nn2)CC3)C1  iBAQ abundance (USP7 (Homo sapiens, UniProt Q93009); probe binding, affinity probe, neutravidin pull-down LC-MS/MS; HEK293T, cell lysate; 5 µM, 1 h, single replicate, unit not given; higher = more pulled down): 1.59e+07 and 4.04e+06 and 1.2e+07
CCOC(=O)C(CC)(CCCSCCOCCOCCOCCNc1ccc([N+](=O)[O-])c2nonc12)NC(=O)c1ccc(C2CC2)c(Cc2ccc(F)cc2)n1 (centres unmarked)  Emax (CNR2 (Homo sapiens, UniProt P34972); cAMP, agonist): 100%
C#CCOC(=O)[C@@]1(C)C=C(C(=O)OC(C)(C)C)C(=O)CC1  normalized kinase activity (MAPK8; enzyme activity, D-SENSOR; 0.02032 µM, single replicate): 1.19 and 0.906 and 1.01

Repeated from above:
CC[C@H](C)[C@H](NC(=O)[C@@H]1CCCN1C(=O)[C@@H](NC(=O)[C@@H](N)Cc1ccccc1)C(C)C)C(=O)N[C@@H](Cc1ccccc1)C(=O)N[C@H](C(=O)N[C@@H](Cc1ccc(O)cc1)C(=O)NCC(=O)N[C@@H](CCC(=O)O)C(=O)N[C@@H](CC(C)C)C(=O)N[C@@H](CCC(N)=O)C(=O)N[C@@H](CCCNC(=N)N)C(=O)N[C@@H](CCSC)C(=O)N[C@@H](CCC(N)=O)C(=O)N[C@@H](CCC(=O)O)C(=O)N[C@@H](CCCCN)C(=O)N[C@@H](CCC(=O)O)C(=O)N[C@@H](CCCNC(=N)N)C(=O)N[C@@H](CC(N)=O)C(=O)N[C@@H](CCCCN)C(=O)NCC(=O)N[C@@H](CCC(N)=O)C(=O)O)[C@@H](C)O  Emax (Motilin receptor (MLNR, Homo sapiens, UniProt O43193, F33A); IP1 accumulation, agonist, IP-One HTRF; AD293 cells; 1 h, 37 °C): 55 ± 7.7%
